Assay results from different studies.
Compare with care: the assays were run in different laboratories. “And” joins repeats or separate records; there may be more than shown. pIC50: −log10 of the molar value.
Cell line: HaCaT

SMILES | assay | conditions | how to read | endpoint | result
CC(C)C[C@H](NC(=O)[C@H](CC(C)C)NC(=O)[C@H](CCCCN)NC(=O)CNC(=O)[C@H](CC(C)C)NC(=O)CNC(=O)[C@H](CO)NC(=O)[C@H](CC(C)C)NC(=O)[C@H](CC(C)C)NC(=O)[C@H](CO)NC(=O)[C@H](CCCCN)NC(=O)[C@H](CC(C)C)NC(=O)[C@H](CCCCN)NC(=O)[C@H](CCCCN)NC(=O)[C@H](CC(C)C)NC(=O)[C@H](CC(C)C)NC(=O)[C@H](CC(C)C)NC(=O)CNC(=O)[C@H](CO)NC(=O)[C@H](Cc1c[nH]c2ccccc12)NC(=O)[C@@H](N)CCCCN)C(=O)O | MTS | 24 h |  | TC50 | 20 µM
COc1cc(/C=C/C(=O)Oc2cc(C(F)(F)F)ccc2C(F)(F)F)ccc1O | cell growth or viability, MTT | 24 h |  | CC50 | 21.3 µM
CC[C@H](C)[C@H](NC(=O)CNC(=O)[C@H](CC(C)C)NC(=O)[C@@H](NC(=O)CNC(=O)[C@H](CC(C)C)NC(=O)[C@H](CCC(N)=O)NC(=O)[C@@H](NC(=O)[C@H](CO)NC(=O)[C@H](C)NC(=O)[C@H](CCCCN)NC(=O)[C@H](CCCNC(=N)N)NC(=O)[C@H](CC(C)C)NC(=O)CNC(=O)[C@H](CCC(N)=O)NC(=O)[C@H](CC(C)C)NC(=O)[C@H](CC(C)C)NC(=O)[C@H](CCC(=O)O)NC(=O)CNC(=O)[C@H](CCCNC(=N)N)NC(=O)[C@@H](NC(=O)[C@H](CCCCN)NC(=O)[C@H](Cc1ccccc1)NC(=O)[C@H](CCCCN)NC(=O)[C@H](CCCCN)NC(=O)[C@H](CO)NC(=O)[C@H](CCCCN)NC(=O)[C@H](CC(C)C)NC(=O)[C@H](CC(C)C)NC(=O)[C@H](CCCCN)NC(=O)[C@H](CCCCN)NC(=O)[C@@H](NC(=O)[C@@H](NC(=O)[C@H](CCCCN)NC(=O)CNC(=O)[C@H](CC(C)C)NC(=O)[C@H](CCCCN)NC(=O)[C@H](C)N)[C@@H](C)O)[C@@H](C)CC)[C@@H](C)CC)C(C)C)[C@@H](C)O)C(=O)N[C@@H](CC(C)C)C(=O)O | cytotoxicity, MTT | 24 h, 37 °C |  | pIC50 | 4.53
Cc1ccc(NS(=O)(=O)c2c(C(=O)N3CCCCCC3)c(C)n(C)c2C)c(Cl)c1 |  | 33.33 µM, 60 h |  | viability | 100% and 95.7%
CC[C@H](C)[C@H](NC(=O)[C@H](C)NC(=O)[C@H](CCCCN)NC(=O)[C@H](CCCCN)NC(=O)[C@@H](N)CCCNC(=N)N)C(=O)N[C@@H](CCCCN)C(=O)N[C@@H](CC(C)C)C(=O)N[C@H](C(=O)N[C@@H](CCCCN)C(=O)N[C@@H](CCCCN)C(=O)N[C@@H](CC(C)C)C(=O)N[C@H](C(=O)N[C@@H](CCCCN)C(=O)N[C@@H](CCCCN)C(=O)N[C@@H](CC(C)C)C(=O)N[C@@H](CCCCN)C(=O)N[C@@H](CCCCN)C(=O)N[C@@H](C)C(=O)N[C@@H](CC(C)C)C(=O)N[C@@H](CCCCN)C(=O)O)C(C)C)C(C)C | MTT | 16 mg/L | baseline: untreated | cell growth | 79.7% and 86.7% and 68.9% and 88.4% and 81.8%
CC(C)C[C@H](NC(=O)[C@H](CC(N)=O)NC(=O)[C@H](CCCNC(=N)N)NC(=O)[C@@H](CC(C)C)NC(=O)[C@H](Cc1ccc(-c2ccccc2)cc1)NC(=O)[C@H](CC(=O)O)NC(=O)[C@H](CCCNC(=N)N)NC(=O)[C@@H](CC(C)C)NC(=O)[C@H](CCCCN)NC(=O)[C@H](CCC(N)=O)NC(=O)[C@@H](NC(=O)[C@@H](CC(C)C)NC(=O)[C@H](CCCNC(=N)N)NC(=O)[C@H](CCCCN)NC(=O)[C@H](Cc1ccc(-c2ccccc2)cc1)NC(=O)CN)C(C)C)C(=O)N[C@H](C(N)=O)C(C)C | cell viability, MTS | 1 h, 37 °C, 10% FBS |  | LC50 | 35 µM
COc1cc(/C=C/C(=O)Oc2cc(C(F)(F)F)ccc2C(F)(F)F)ccc1OC(C)=O | MTT | 24 h, 10% FBS |  | subcytotoxic concentration | 25 µM
CC[C@H](C)[C@H](NC(=O)[C@H](C)NC(=O)[C@H](CCCCN)NC(=O)[C@H](CC(C)C)NC(=O)[C@@H](N)Cc1ccccc1)C(=O)N[C@@H](CCCCN)C(=O)N[C@@H](CCCCN)C(=O)N[C@@H](Cc1ccccc1)C(=O)NCC(=O)N[C@@H](CCCCN)C(=O)N[C@@H](CCC(=O)O)C(=O)N[C@@H](Cc1ccccc1)C(=O)N[C@@H](CCCCN)C(=O)N[C@@H](CCCCN)C(=O)N[C@H](C(=O)NCC(=O)N[C@@H](C)C(=O)N[C@@H](CCCCN)C(=O)N[C@@H](CC(C)C)C(=O)N[C@@H](CCCCN)C(=O)O)[C@@H](C)CC | MTT | 64 mg/L | baseline: untreated | cell growth | 75.6% and 84.6% and 89.1% and 91% and 86%
CC[C@H](C)[C@H](NC(=O)CN)C(=O)N[C@@H](Cc1c[nH]c2ccccc12)C(=O)N[C@@H](CCCCN)C(=O)N1CCC[C@H]1C(=O)N[C@H](C(=O)N[C@@H](Cc1ccccc1)C(=O)N[C@H](C(=O)N[C@@H](Cc1ccc(O)cc1)C(=O)N[C@@H](CC(C)C)C(=O)N[C@@H](C)C(=O)N[C@H](C(=O)N1CCC[C@H]1C(=O)N[C@H](C(=O)N[C@@H](Cc1c[nH]cn1)C(=O)N[C@@H](Cc1ccccc1)C(=O)N[C@@H](CCCCN)C(=O)N[C@@H](Cc1ccccc1)C(=O)O)[C@@H](C)CC)[C@@H](C)O)[C@@H](C)O)[C@@H](C)CC | cytotoxicity, MTT | 24 h, 37 °C |  | pIC50 | 4.50
COC(=O)/C=C/c1ccc(O)c(OC)c1 | MTT | 24 h, 10% FBS |  | subcytotoxic concentration | 50 µM

For quick reference, copied from above:
SMILES | assay | conditions | how to read | endpoint | result
COC(=O)/C=C/c1ccc(O)c(OC)c1 | MTT | 24 h, 10% FBS |  | subcytotoxic concentration | 50 µM
CC(C)C[C@H](NC(=O)[C@H](CC(N)=O)NC(=O)[C@H](CCCNC(=N)N)NC(=O)[C@@H](CC(C)C)NC(=O)[C@H](Cc1ccc(-c2ccccc2)cc1)NC(=O)[C@H](CC(=O)O)NC(=O)[C@H](CCCNC(=N)N)NC(=O)[C@@H](CC(C)C)NC(=O)[C@H](CCCCN)NC(=O)[C@H](CCC(N)=O)NC(=O)[C@@H](NC(=O)[C@@H](CC(C)C)NC(=O)[C@H](CCCNC(=N)N)NC(=O)[C@H](CCCCN)NC(=O)[C@H](Cc1ccc(-c2ccccc2)cc1)NC(=O)CN)C(C)C)C(=O)N[C@H](C(N)=O)C(C)C | cell viability, MTS | 1 h, 37 °C, 10% FBS |  | LC50 | 35 µM
